# Results of several laboratories.
# Every numbered part comes from another study and shows a few of its results, in no order.

# Sample 1 — technique: RNA Bind-n-Seq; form: RNA; medium: in vitro; concentration: 1 µM; setting: whole 134-nt RNA, ends assumed; with: 150 mM KCl; baseline: input library; direction: higher = stronger binding
# Target: Ras GTPase-activating protein-binding protein 1, RRM domain (G3BP1, Homo sapiens, UniProt Q13283)
# Chain of UniProt Q13283 (whole entry, looked up): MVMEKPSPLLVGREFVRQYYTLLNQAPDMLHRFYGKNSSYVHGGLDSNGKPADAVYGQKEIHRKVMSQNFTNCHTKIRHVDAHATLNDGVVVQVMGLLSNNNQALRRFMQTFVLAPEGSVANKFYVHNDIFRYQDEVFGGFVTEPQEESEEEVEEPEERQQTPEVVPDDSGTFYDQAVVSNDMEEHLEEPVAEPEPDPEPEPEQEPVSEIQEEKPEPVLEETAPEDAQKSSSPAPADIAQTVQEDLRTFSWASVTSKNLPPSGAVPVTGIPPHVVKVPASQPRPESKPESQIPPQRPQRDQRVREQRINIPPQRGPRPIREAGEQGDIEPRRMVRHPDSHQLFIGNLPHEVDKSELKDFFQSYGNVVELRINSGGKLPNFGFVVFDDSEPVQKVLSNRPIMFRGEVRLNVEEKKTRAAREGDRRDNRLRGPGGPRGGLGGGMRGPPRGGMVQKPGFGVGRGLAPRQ
# Constant ends, left off below: GGGAGUUCUACAGUCCGACGAUC … UGGAAUUCUCGGGUGUCAAGG
Oligonucleotide,log2 enrichment
GUCCUGUGCUACACAUCGUAUGUACCGAAUCGGCCCCCCGGGCCCCCCGGCCCCCCGGAAAGUAUUAUGUUACGCCGUUCGGAUCUGCAC,-0.295
UGGGAGGUGGAUUUUGUUUAUUUUUUUAGCUCAUUUCCAGGGGUGGGACUUUUUUUUUAAUAUGUGUCAUGAAUAAAGUUGUUUUUGAAA,1.72
UCCUCAAGUCCUGUGCUACACAUCGUAUGUACCGAAUCGGCGGGGCGGGCGGAAAGUAUUAUGUUACGCCGUUCGGAUCUGCACUUCCAG,-0.284
CAAGUCCUGUGCUACACAUCGUAUGUACCGAAUCGGGUUUUUGGGUGGGUUUGGGAAAGUAUUAUGUUACGCCGUUCGGAUCUGCACUUC,0.528
UGGUAUUCAUGGGUAGUUUGAAAUAUCCAGAUGAGAAUGGAUUUGAUGCCUUCCUGAAGAAGCAUGGGGGUAGUGAUAAUGCCUCAACUG,-0.232

# Sample 2 — technique: universal PBM; form: double-stranded DNA, one strand shown; medium: in vitro; concentration: not given; direction: higher = stronger binding
# Target: Sal-like protein 4, full length isoform B (SALL4, Homo sapiens, UniProt Q9UJQ4-2, residues 1-616)
# Setting: 8-mer, flanks averaged, mean of replicates
# Target sequence (chain): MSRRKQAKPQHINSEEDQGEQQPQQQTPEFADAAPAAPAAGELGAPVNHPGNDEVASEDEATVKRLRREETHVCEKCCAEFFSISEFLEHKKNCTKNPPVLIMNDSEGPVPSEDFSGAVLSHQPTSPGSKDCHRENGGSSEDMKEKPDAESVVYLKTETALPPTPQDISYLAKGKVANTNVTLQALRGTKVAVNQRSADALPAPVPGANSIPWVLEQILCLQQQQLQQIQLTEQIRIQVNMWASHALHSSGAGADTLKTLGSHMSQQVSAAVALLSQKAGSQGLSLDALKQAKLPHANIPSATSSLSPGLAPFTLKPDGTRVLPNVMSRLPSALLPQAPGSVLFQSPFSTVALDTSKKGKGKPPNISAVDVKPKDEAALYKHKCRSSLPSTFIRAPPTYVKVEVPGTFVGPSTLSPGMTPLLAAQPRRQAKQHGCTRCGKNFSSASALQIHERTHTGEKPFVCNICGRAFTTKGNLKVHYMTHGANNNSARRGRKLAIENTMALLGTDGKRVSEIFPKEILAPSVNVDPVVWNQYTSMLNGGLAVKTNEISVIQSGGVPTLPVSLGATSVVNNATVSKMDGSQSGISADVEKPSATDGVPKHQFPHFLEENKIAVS
Oligonucleotide,E-score
GTTCATCA,0.0819
CCAAGCGC,-0.16
GAAGCCGC,-0.169

# Single results of other studies
# F2 mature alpha-thrombin: Prothrombin, mature alpha-thrombin (F2, Homo sapiens, UniProt P00734)
Substance,target,assay,test system,setting,how to read,quantity,result
GGTTGGTGTGGTTGG (2'F-ANA at 1 3 4 5 6 7 9 13 15),F2 mature alpha-thrombin,"aptamer microarray, sandwich","DNA with 2'F-ANA, in vitro","200 nM, whole 15-mer aptamer, many near background, with: Cy3 exosite-II aptamer, 400 nM",higher = stronger binding,mean fluorescence intensity,53.2 a.u.
"PhoQ, residues 284 288 289 292 302 303 NLALSC","PhoP, residues 12 14 15 18 19 NFCKL (Escherichia coli, UniProt P23836)","Sort-seq, measured: YFP reporter",E. coli,"PhoQ-PhoP variant library, with: 10 µM Mg2+","baseline: high Mg2+ state, higher = stronger signaling",fold induction,2.56
GGTTGGTGTGGTTGG (2'F-ANA at 1 2 4 7 8 12 13 14),F2 mature alpha-thrombin,"aptamer microarray, sandwich","DNA with 2'F-ANA, in vitro","200 nM, whole 15-mer aptamer, many near background, with: Cy3 exosite-II aptamer, 400 nM",higher = stronger binding,mean fluorescence intensity,64.4 a.u.
GGTTGGTGTGGTTGG (2'F-ANA at 2 3 6 7 9 10 12 13 14),F2 mature alpha-thrombin,"aptamer microarray, sandwich","DNA with 2'F-ANA, in vitro","200 nM, whole 15-mer aptamer, many near background, with: Cy3 exosite-II aptamer, 400 nM",higher = stronger binding,mean fluorescence intensity,246 a.u.

# For quick reference, copied from above (single results of other studies):
Substance,target,assay,test system,setting,how to read,quantity,result
GGTTGGTGTGGTTGG (2'F-ANA at 1 3 4 5 6 7 9 13 15),F2 mature alpha-thrombin,"aptamer microarray, sandwich","DNA with 2'F-ANA, in vitro","200 nM, whole 15-mer aptamer, many near background, with: Cy3 exosite-II aptamer, 400 nM",higher = stronger binding,mean fluorescence intensity,53.2 a.u.
"PhoQ, residues 284 288 289 292 302 303 NLALSC","PhoP, residues 12 14 15 18 19 NFCKL (Escherichia coli, UniProt P23836)","Sort-seq, measured: YFP reporter",E. coli,"PhoQ-PhoP variant library, with: 10 µM Mg2+","baseline: high Mg2+ state, higher = stronger signaling",fold induction,2.56
